Experimental data from different studies.
A part holds a random share of what one study measured. Positions count from the first letter of the parent shown.

Block 1 — technique: protein binding microarray; molecule type: double-stranded DNA, one strand shown; sample: in vitro; concentration: not given; reference: not given; direction: higher = stronger binding
Target: Histone acetyltransferase KAT6A, both winged helices, GST fusion (KAT6A, Homo sapiens, UniProt Q92794, residues 1-181)
Notes: 8-mer, flanks averaged, mean of 2 arrays, mostly near background
Construct (chain): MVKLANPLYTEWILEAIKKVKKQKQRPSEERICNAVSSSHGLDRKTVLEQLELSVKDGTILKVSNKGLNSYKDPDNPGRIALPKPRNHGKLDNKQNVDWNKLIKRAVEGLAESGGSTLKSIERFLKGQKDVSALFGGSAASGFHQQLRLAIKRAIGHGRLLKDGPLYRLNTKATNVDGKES
Oligonucleotide | E-score
ACAAAATC | -0.0741
AGACCCGG | 0.205
AGACTCGC | 0.0631
AAGGGCCG | 0.0354
CAGAATAG | -0.128
ATGGCCTC | -0.296

Block 2 — technique: RNA Bind-n-Seq; molecule type: RNA; sample: in vitro; concentration: 365 nM; reference: no-protein control; direction: higher = stronger binding
Target: RNA binding protein fox-1 homolog 2, RRM domain, GST-SBP tag (RBFOX2, Homo sapiens, UniProt O43251-10, residues 100-194)
Notes: natural RNA segment, single round, ends assumed
Construct (chain): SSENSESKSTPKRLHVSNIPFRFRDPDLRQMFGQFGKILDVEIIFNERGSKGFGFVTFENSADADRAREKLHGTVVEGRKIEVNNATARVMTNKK
Oligonucleotide | RBNS enrichment (R)
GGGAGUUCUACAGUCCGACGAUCUAUGAGGUUGCUUGCUGCUGGGAAGCCUGGCAGAGCCAAUUACCACCCUCUGCUGCUUAGUGCUUGGGUACCUCUUGCAAUAACCAGCUCUUAGUUGUUCCCUUUCCCUGUGGAAUUCUCGGGUGCCAA | 0.289
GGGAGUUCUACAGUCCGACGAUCACAAAUGUGUCAUUCAAAACAGUAAUUAGGGAAAUCCCACAGAUGAAAAAUGCCUUAGUGAUAAGCUUUCAUGGCAGAGCACGUCAAGAUAAAUGGGUAUACUGGAAUCCUGGAAUUCUCGGGUGCCAA | 0.405
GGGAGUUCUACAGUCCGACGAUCGUCAUAUUUCAUUCAAAUGCCAAUUAAUAAAGCAAAGCUGACUGAAGUUGCCUCCCCUGGUGUUCCACCAUCCACAGUUUCUGUAACAUUUACCCAGUGGACAUGAGCGCUGGAAUUCUCGGGUGCCAA | 0.313
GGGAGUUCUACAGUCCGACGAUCCUCAGCCGAUCAGGAAUCAUUGGCAGAUGCACAUGCCCUGGAACUUUCCCUUAGUUUUGUGAACUCUGCUAAUCACUGUGUCUCUAAGUUAGACUUAUUUUCUAGUGGCUUGGAAUUCUCGGGUGCCAA | 0.423
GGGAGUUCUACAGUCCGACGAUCUUUAAUAGUAACAUUAACAACAAGAAUACUAAGACUGUUUGGGAAUUUUAAAAAGCUACUAGUGAGAAACCAAAUGAUAGGUUGUAGAGCCUGAUGACUCCAAACAAAGCUGGAAUUCUCGGGUGCCAA | 0.657
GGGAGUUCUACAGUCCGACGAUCGAAAGUUUACAACCUGUUCUGAAACUAUUUGUCUUUUCACUGGUUGUAAGUGUACCCCAAUCUCAGGGAGUAUAUCUGUAGUGCCACAGGCAAAAGAUCCACUCCUUCCCUGGAAUUCUCGGGUGCCAA | 0.326
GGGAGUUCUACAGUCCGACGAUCGCGCCCCAGGUCUCCCCUACUCCGCUCACCCCGCAGUUAAUGGCAAACGAAUAAAUAAAUGAGGCGGCCUCGGAGUGAGGGGUGCUGGAGGACUGGCAGCCAGGCCACGAUGGAAUUCUCGGGUGCCAA | 0.422

Block 3 — target: CCNF, cyclin fold, Cln2 fusion (human); technique: yeast growth competition, sequencing; sample: yeast; notes: strong parent motif; reference: not given; direction: higher = stronger binding
Starting sequence: WEE1 docking peptide (human); HKTFRKLRLFDTP; partner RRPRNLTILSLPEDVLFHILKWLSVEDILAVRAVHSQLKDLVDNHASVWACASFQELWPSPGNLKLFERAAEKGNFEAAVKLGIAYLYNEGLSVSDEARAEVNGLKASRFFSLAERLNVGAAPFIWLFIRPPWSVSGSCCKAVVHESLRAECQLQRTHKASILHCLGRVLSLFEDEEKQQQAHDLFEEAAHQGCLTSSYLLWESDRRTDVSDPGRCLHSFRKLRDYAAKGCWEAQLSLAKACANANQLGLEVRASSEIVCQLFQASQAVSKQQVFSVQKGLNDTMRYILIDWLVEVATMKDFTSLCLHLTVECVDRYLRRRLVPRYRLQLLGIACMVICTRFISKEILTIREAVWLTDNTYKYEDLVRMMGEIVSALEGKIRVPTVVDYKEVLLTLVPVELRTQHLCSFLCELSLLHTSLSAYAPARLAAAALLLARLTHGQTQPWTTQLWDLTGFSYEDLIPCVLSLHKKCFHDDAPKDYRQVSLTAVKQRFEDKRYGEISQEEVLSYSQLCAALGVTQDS
Change | normalised enrichment score
H1T | 1.5
T3I | 1.72
P13R | 2.33
R5Y | 1.37
T12F | 2.19
K2W | 2.63
H1L | 1.55

Further values, each from its own experiment
Substance | target | test | system | setting | how to read | quantity | value
PhoQ, residues 284 288 289 292 302 303 SSLVEF | PhoP, residues 12 14 15 18 19 LHSVW (Escherichia coli, UniProt P23836) | Sort-seq, item: YFP reporter | E. coli | PhoQ-PhoP variant library, added: 10 µM Mg2+ | reference: high Mg2+ state, higher = stronger signaling | fold induction | 2.08

Repeated from above (block 3):
Change | normalised enrichment score
H1T | 1.5
T3I | 1.72
P13R | 2.33
